Measurements collected from several papers.
Parts stem from different laboratories: compare values within a part only. Several values in a cell are separate wells, animals, samples, runs or records.
Sequence of UniProt P23975 (whole entry, looked up): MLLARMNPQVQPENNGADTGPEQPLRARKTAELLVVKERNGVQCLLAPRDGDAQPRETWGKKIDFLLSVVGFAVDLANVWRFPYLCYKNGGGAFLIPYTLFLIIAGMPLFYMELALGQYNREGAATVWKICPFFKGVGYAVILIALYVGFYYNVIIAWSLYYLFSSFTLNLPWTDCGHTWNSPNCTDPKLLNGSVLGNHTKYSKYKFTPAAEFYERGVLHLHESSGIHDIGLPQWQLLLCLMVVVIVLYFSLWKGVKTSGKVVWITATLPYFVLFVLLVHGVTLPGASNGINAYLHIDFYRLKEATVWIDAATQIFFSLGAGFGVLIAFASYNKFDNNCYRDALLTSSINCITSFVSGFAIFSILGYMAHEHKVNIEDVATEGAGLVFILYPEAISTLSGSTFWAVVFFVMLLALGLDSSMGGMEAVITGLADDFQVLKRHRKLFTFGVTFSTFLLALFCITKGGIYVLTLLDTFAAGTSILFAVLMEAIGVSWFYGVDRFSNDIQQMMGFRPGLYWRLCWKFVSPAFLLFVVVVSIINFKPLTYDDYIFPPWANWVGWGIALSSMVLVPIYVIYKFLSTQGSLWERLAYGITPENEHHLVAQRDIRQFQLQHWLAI
Sequence of UniProt P08908 (whole entry, looked up): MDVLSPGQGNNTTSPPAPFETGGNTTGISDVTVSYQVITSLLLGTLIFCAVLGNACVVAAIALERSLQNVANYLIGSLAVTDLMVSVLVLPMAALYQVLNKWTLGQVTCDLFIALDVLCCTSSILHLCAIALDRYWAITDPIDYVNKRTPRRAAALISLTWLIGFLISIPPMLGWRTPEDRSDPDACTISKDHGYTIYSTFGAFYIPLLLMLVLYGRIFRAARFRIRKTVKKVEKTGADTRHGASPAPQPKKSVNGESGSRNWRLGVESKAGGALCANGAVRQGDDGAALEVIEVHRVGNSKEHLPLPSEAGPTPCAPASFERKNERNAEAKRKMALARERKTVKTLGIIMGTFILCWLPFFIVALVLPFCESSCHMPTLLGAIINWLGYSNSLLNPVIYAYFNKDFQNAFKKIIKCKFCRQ
Sequence of UniProt Q01959 (whole entry, looked up): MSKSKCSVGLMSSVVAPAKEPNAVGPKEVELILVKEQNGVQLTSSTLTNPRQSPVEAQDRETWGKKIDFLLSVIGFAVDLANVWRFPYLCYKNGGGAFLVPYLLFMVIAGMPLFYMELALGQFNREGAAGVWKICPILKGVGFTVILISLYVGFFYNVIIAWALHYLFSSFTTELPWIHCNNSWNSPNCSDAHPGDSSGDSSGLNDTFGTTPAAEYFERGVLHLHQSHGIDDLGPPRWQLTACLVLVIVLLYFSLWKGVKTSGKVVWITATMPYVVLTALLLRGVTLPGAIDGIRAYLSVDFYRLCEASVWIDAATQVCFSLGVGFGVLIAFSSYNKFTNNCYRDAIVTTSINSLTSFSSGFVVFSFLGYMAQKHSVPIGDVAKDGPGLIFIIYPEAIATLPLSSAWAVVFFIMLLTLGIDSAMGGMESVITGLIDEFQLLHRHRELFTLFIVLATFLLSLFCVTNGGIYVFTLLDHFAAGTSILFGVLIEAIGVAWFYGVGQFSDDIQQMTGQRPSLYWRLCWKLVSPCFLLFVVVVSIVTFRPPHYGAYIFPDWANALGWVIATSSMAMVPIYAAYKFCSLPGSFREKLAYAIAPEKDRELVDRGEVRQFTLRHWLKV

Block 1
Compound: CNC(=N)NCCC[C@H](NC(=O)[C@H](CC(C)C)NC(=O)NNC(=O)[C@H](Cc1ccccc1)NC(=O)[C@H](CO)NC(=O)[C@H](CC(N)=O)NC(=O)[C@@H](Cc1ccncc1)NC(=O)[C@H](N)Cc1ccc(O)cc1)C(=O)N[C@@H](Cc1ccccc1)C(N)=O
Read-out: ligand displacement
Concentration: 10 µM
SLC6A3 (Homo sapiens, UniProt Q01959) — inhibition: 12%.
It gave 18.5% for inhibition (HTR1A (Homo sapiens, UniProt P08908); radioligand).
The inhibition was 5.4% (SLC6A2 (Homo sapiens, UniProt P23975)).

Block 2
Cell line: HEK-293T/ACE2
Concentration: concentration not given
Time: 16 (unit not given)
Baseline: vehicle
`CC(C)NCC(O)c1ccc(NS(C)(=O)=O)cc1` (stereo not shown) has a viability of 99.4%.
For `C=CC[N+]1([C@H]2C[C@H]3[C@@H]4CC[C@H]5C[C@H](O)[C@@H](N6CCOCC6)C[C@]5(C)[C@H]4CC[C@]3(C)[C@H]2OC(C)=O)CCCC1`, the viability was 103%.
For `CC(C)Cn1cnc2c(N)nc3ccccc3c21`, the viability was 89.8%.
With `O=C(CCCCC(=O)Nc1c(I)cc(I)c(C(=O)O)c1I)Nc1c(I)cc(I)c(C(=O)O)c1I` the viability was 102%.
The viability of `CCC(=O)O[C@]1(C(=O)CCl)[C@@H](C)C[C@H]2[C@@H]3CCC4=CC(=O)C=C[C@]4(C)[C@@]3(F)[C@@H](O)C[C@@]21C` is reported as 101%.

Block 3
SMILES: O=C1CCC(N2Cc3c(ccc4c3OCC43CCN(Cc4ccccc4)CC3)C2=O)C(=O)N1 (stereo not shown)
Medium: plasma
The AUC(0-inf) was 800 ng·h/mL (male Sprague-Dawley rat; intravenous, 1 mg/kg).
It gave 1070 ng·h/mL and 1290 ng·h/mL for AUC(0-inf) (male ICR mice; oral, 3.0 mg/kg).
It gave 830 ng·h/mL for AUC(0-inf) (male Sprague Dawley rats; intravenous, 1.0 mg/kg).
For mouse, ICR, male; intravenous, 1.0 mg/kg: AUC(0-inf) read 413 ng·h/mL.

Further values, each from its own experiment
`COc1cc2c(cc1O)CC1c3c(cc(O)c(OC)c3-2)CCN1C` (stereo not shown) has a remaining compound of 76% (human, microsomes or S9; 2 µM, 0.5 h).

A few entries again (further values, each from its own experiment):
`COc1cc2c(cc1O)CC1c3c(cc(O)c(OC)c3-2)CCN1C` (stereo not shown) has a remaining compound of 76% (human, microsomes or S9; 2 µM, 0.5 h).
